Results of several laboratories.
Every numbered part comes from another study and shows a few of its results, in no order. Substitutions count along the parent as printed.

Series 1
Target: CCND2, cyclin fold, Cln2 fusion (human)
Technique: yeast growth competition, sequencing
Sample: yeast
Notes: weak parent motif
Reference: not given
Direction: higher = stronger binding
Parent: SCAPER docking peptide (human); SNARRSLNFGGST
| Variant | normalised enrichment score |
| --- | --- |
| SNFRRSLNFGGST [A3F] | 0.0859 |
| SNARRSLLFGGST [N8L] | -0.0611 |
| SNARRSLNFSGST [G10S] | 0.249 |
| SNARRSCNFGGST [L7C] | 0.26 |
| DNARRSLNFGGST [S1D] | 0.304 |

Series 2
Target: Interferon regulatory factor 5, full length, phosphomimetic (IRF5, Homo sapiens, UniProt Q13568-2, residues 1-514, K96S/S451D/S453D/S456D/S462D)
Technique: protein-binding microarray
Form: double-stranded DNA, one strand shown
Sample: in vitro
Concentration: 250 nM
Notes: 60-bp whole probe
Together with: salmon DNA 0.4 mg/ml
Reference: random background probes
Direction: higher = stronger binding
Constant ends, left off below: GCCTAGCAC … GTCTTGATTCGCTTGACGCTGCTG
| Oligonucleotide | log fluorescence [z-score] |
| --- | --- |
| TTAGATACCAGTATCGATTAGTGCTAG | 7.19 |
| TTAGGACGGGACTATCGGTTAGTGCTA | 6.36 |
| TCATATATATTGTTAGTACTGTGCTAG | 0.565 |
| GACGGTTTCGGTTTCGGGAGGTGCTAG | 10.9 |
| TTAGGTAACGACTTTCGGTTAGTGCTA | 10 |
| ATAGGTTTCGGGTATCGGTTAGTGCTA | 9.43 |
| AACGGTATCCTACTGCTGACGTGCTAG | 0.0829 |
| GACGGACGGGACTTTCGGGACGTGCTA | 4.32 |
| TCATATTCATATATATAACTGTGCTAG | 1.19 |

Series 3
Target: Max dimerization protein 1, bHLH-zipper, MAX partner unstated (MXD1, Homo sapiens, UniProt Q05195, residues 56-136)
Technique: protein-binding microarray
Form: double-stranded DNA, one strand shown
Sample: in vitro
Concentration: not given
Notes: k-mer, scored over probes, only values ≥0.25
Direction: higher = stronger binding
Construct (chain): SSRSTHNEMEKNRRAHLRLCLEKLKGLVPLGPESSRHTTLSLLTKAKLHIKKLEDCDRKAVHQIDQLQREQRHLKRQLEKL
| Oligonucleotide | E-score |
| --- | --- |
| CCCGCGCC | 0.251 |
| GGAACGCA | 0.313 |
| CCGTCCCC | 0.273 |
| ACGTGTAG | 0.349 |
| ACACGTGT | 0.489 |
| GATCATGC | 0.276 |
| GACGTGGC | 0.262 |
| CCCGTGTC | 0.26 |
| CCACGCGG | 0.469 |

Further values, each from its own experiment
| Substance | target | test | test system | conditions | scale | quantity | value |
| --- | --- | --- | --- | --- | --- | --- | --- |
| PhoQ, residues 284 288 289 292 302 303 SLGVVW | PhoP, residues 12 14 15 18 19 AWHSL (Escherichia coli, UniProt P23836) | Sort-seq, item: YFP reporter | E. coli | PhoQ-PhoP variant library, together with: 10 µM Mg2+ | reference: high Mg2+ state, higher = stronger signaling | fold induction | 4.61 |

Excerpt of the above (series 3):
| Oligonucleotide | E-score |
| --- | --- |
| CCCGTGTC | 0.26 |
| ACGTGTAG | 0.349 |
| GATCATGC | 0.276 |
| GACGTGGC | 0.262 |
